Measured values of several laboratories.
Values joined by “and” are separate records of one study, mostly repeats; a detail may differ. ± gives the spread as reported. Values after ≈ are worked out from the molar mass of the structure shown.

C/C=C(/C)C(=O)O[C@H]1C(C)=C2[C@H]([C@@H]1OC(=O)CCCCCCC)[C@@](C)(OC(C)=O)C[C@H](OC(=O)CCC)[C@@]1(O)[C@H]2OC(=O)[C@@]1(C)O — log2 fold change (HEK293T; RNA-seq, refers to: CHAC1 mRNA; 10 µM, 6 h; relative to: vehicle): 4.39
O=C1CCP(=S)(c2ccccc2)CC1 — late apoptotic cells (HCT-116; Annexin V-FITC/PI flow cytometry; IC50, 72 h): 80.2%
CC[C@@]1([C@@H]2O[C@@H]([C@H]3O[C@@](O)(CO)[C@H](C)C[C@@H]3C)C[C@@H]2C)CC[C@H]([C@]2(C)CC[C@]3(C[C@H](O)[C@@H](C)[C@@H]([C@@H](C)[C@@H](OC)[C@H](C)C(=O)O)O3)O2)O1 — selectivity index (MCF-10A; cell viability; relative to: MCF-10A over cancer cells): 0.3
COc1ccc2c(c1)[nH]c1c(C)nccc12 — methylation reduction (DU-145; bisulfite pyrosequencing, refers to: RASSF1A promoter CpG site 23; concentration not given; relative to: vehicle): 3.09%
Nc1ncnc2c1ncn2[C@@H]1O[C@@H]2COP(=O)(O)O[C@H]3[C@@H](O)[C@H](n4cnc5c(=O)[nH]cnc54)O[C@@H]3COP(=O)(O)O[C@H]2[C@H]1O — pathway fold enrichment (HFF-1; RNA sequencing, refers to: RHO GTPases activate CIT; downregulated pathway; relative to: Zika virus alone): 15
COc1ccc([C@H]2c3[nH]c4ccc(Cl)cc4c3CCN2C(=O)Oc2ccc(Cl)cc2)cc1 — inhibition (human dermal fibroblasts with PBMC; cytokine secretion, refers to: sIL-2; 0.01 µM, 48 h): 47%
CC[C@H](C)[C@H](NC(=O)CNC(=O)[C@@H](N)CCCCN)C(=O)N[C@@H](CC(C)C)C(=O)N[C@@H](CCCCN)C(=O)N[C@@H](CCCNC(=N)N)C(=O)N[C@@H](CCC(=O)O)C(=O)N[C@@H](CCCCN)C(=O)N[C@@H](CCCNC(=N)N)C(=O)N[C@@H](CC(C)C)C(=O)N[C@@H](CCCNC(=N)N)C(=O)N[C@@H](CCCNC(=N)N)C(=O)N[C@@H](CCCCN)C(=O)N[C@@H](CC(N)=O)C(=O)N[C@H](C(=O)N[C@@H](Cc1c[nH]cn1)C(=O)N[C@@H](Cc1c[nH]c2ccccc12)C(=O)N1CCC[C@H]1C(=O)N[C@@H](CCC(=O)O)C(=O)N[C@@H](CCC(=O)O)C(=O)NCC(=O)N[C@@H](CCCCN)C(=O)N[C@@H](CC(C)C)C(=O)N[C@@H](CCCNC(=N)N)C(=O)N[C@@H](CCC(=O)O)C(=O)N[C@@H](Cc1ccccc1)C(=O)N[C@@H](Cc1ccccc1)C(=O)N[C@@H](Cc1ccccc1)C(=O)N[C@@H](Cc1ccccc1)C(=O)N[C@@H](CCC(=O)O)C(=O)N[C@@H](CC(C)C)C(=O)N[C@@H](CC(=O)O)C(=O)N[C@@H](CCC(=O)O)C(=O)N[C@@H](C)C(=O)N[C@@H](CCC(=O)O)C(=O)N[C@@H](CCCNC(=N)N)C(=O)N[C@H](C(=O)N[C@@H](CC(N)=O)C(=O)N[C@H](C(=O)O)C(C)C)C(C)C)C(C)C — log2 fold change (HeLa (mitotic); protein phosphorylation, TMT phosphoproteomics, refers to: histone H3.1t Ser29; cell lysate; concentration not given, 15 min; relative to: treated over control): 2.66
Nc1ccc([N+](=O)[O-])cc1 — fitted curve top (human cells; reporter gene, agonist, luciferase reporter; relative to: positive control): 0%
C=C1CC[C@@H]2[C@](C)(CCC[C@]2(C)C(=O)O)[C@H]1CC/C(C)=C/CO — PCNA level (neuroblastoma M2 (+); western blot; IC50; relative to: untreated): decreased
Oc1ccc(C(c2ccc(O)cc2)(C(F)(F)F)C(F)(F)F)cc1 — G1 phase cells (HepG2 spheroids; Hoechst flow cytometry; 0.01 µM, 96 h): 71.8 ± 2.4%
CN1CCN(C2(CNC3CCN(c4cccc(-c5cc6cc(F)ccc6[nH]5)c4)CC3)CCC2)CC1 — CC50 (M14): 6.91 µM
O=C(Nc1ccc2[nH]nc(-c3ccncc3)c2c1)[C@@H]1CCN(CC(=O)N2CCN(c3ccc(-c4ncccn4)cc3)CC2)C1 — PI-positive cells (HCT116; IncuCyte; concentration not given, 40 (unit not given)): 15.3 count and 14.2 count and 17 count
COc1c(C)c2c(c(O)c1C/C=C(\C)CCC(=O)O)C(=O)OC2 — IC50 (SK-MEL-5; cell proliferation; skin cancer): 0.851 µM
CN[C@@H]1C[C@H]2O[C@@](C)([C@@H]1OC)n1c3ccccc3c3c4c(c5c6ccccc6n2c5c31)C(=O)NC4 — mRNA fold change (Caco-2; qRT-PCR, refers to: Bax; IC50; relative to: untreated): 7.65
N.N.[Cl][Pt][Cl] — inhibition (NAMALWA; cell proliferation, CellTiter-Glo; 10 µM, 72 h): 100%
COC(=O)C[C@H](NC(=O)[C@H](C)NC(=O)[C@@H](NC(=O)OCc1ccccc1)C(C)C)C(=O)CF — cell death increase (BC-3 or BCBL-1; MTT; 40 µM, compound alone): > 10%
Cn1cc(-c2ccc(-c3cncc(Cl)c3N3CCC4(CCNC4=O)CC3)cc2)cn1 — log2 fold change (COLO 205; gene expression, microarray, refers to: BIRC5 mRNA; concentration not given, 6 h; relative to: untreated cells): -3.3
COCCCn1c(N)c(C(=O)NC2CCCC2)c2nc3ccccc3nc21 — viability (OCI-Ly1; 0.5 µM, 120 h): 161%
COc1c(CCC[P+](c2ccccc2)(c2ccccc2)c2ccccc2)cc2c(c1OC)OCO2.[I-] — LC50 (MDA-MB-231; NCI60 SRB): -4.15 log M
C[C@@H](O)[C@H]1C(=O)N2C(C(=O)O)=C(S[C@@H]3CN[C@H](C(=O)N(C)C)C3)[C@H](C)[C@H]12 — MIC (Escherichia coli DH5α expressing KPC-2; bacterial growth): 4 µg/mL (≈ 10.4 µM)
Nc1ncc(-c2nc(N3CCOCC3)nc(N3CCOCC3)n2)c(C(F)F)n1 — GI50 (DoTc2 4520; cell growth; 72 h): 0.083 µM
Nc1nc2nc[nH]c2c(=S)[nH]1 — surviving fraction (HCT-116; clonogenic; 2.5 µM, 10 days): 0.952
Cn1cncc1C1=CN(c2ncnc3[nH]cnc23)CCS1 — CC50 (OVCAR-3; ovarian cancer): > 200 µM
CC(C)N1CCC(NC2CCN(c3cccc(-c4cc5cc(F)ccc5[nH]4)c3)CC2)CC1 — CC50 (HOP-92): 6.83 µM
COc1cc(CCC[P+](c2ccccc2)(c2ccccc2)c2ccccc2)c(OC)c2c1OCO2.[I-] — LC50 (EKVX; SRB): > -4 log M
CCN(CC)c1ccc(C=NNC(=O)CSc2nc3ccccc3c(=O)n2Cc2ccc(S(N)(=O)=O)cc2)c(O)c1 — CC50 (HOP-92; NCI five-dose screen): > 100 µM
Cc1cc(C(C)(C)c2ccc(O)c(C)c2)ccc1O — inhibition (HepG2 spheroids; cell proliferation, flow cytometry, refers to: Ki67; 10 µM, 96 h; relative to: solvent control): 7.32%
Cc1cnc2ccc3c(nc(N)n3C)c2n1 — plating efficiency (BALB/c 3T3; colony formation; 50 µM): 45%
Cc1sc2c(c1C)C(c1ccc(Cl)cc1)=N[C@@H](CC(N)=O)c1nnc(C)n1-2 — viability (OCI-Ly1; 0.1 µM, 120 h): 46.2%
CC(c1ccccc1)(c1ccc(O)cc1)c1ccc(O)cc1 — G2 phase cells (HepG2 spheroids; Hoechst flow cytometry; 0.1 µM, 24 h): 18.3 ± 4.75%

Excerpt of the above:
COc1ccc2c(c1)[nH]c1c(C)nccc12 — methylation reduction (DU-145; bisulfite pyrosequencing, refers to: RASSF1A promoter CpG site 23; concentration not given; relative to: vehicle): 3.09%
Nc1ncnc2c1ncn2[C@@H]1O[C@@H]2COP(=O)(O)O[C@H]3[C@@H](O)[C@H](n4cnc5c(=O)[nH]cnc54)O[C@@H]3COP(=O)(O)O[C@H]2[C@H]1O — pathway fold enrichment (HFF-1; RNA sequencing, refers to: RHO GTPases activate CIT; downregulated pathway; relative to: Zika virus alone): 15
